Assay results gathered from unrelated publications.
Parts stem from different laboratories: compare values within a part only. Substitutions count along the parent as printed.

Set 1 — method: RNA Bind-n-Seq; form: RNA; matrix: in vitro; concentration: 365 nM; relative to: no-protein control; direction: higher = stronger binding
Target: RNA binding protein fox-1 homolog 2, RRM domain, GST-SBP tag (RBFOX2, Homo sapiens, UniProt O43251-10, residues 100-194)
Setting: natural RNA segment, single round, ends assumed
Shared flanks, not repeated: GGGAGUUCUACAGUCCGACGAUC … UGGAAUUCUCGGGUGCCAA
Target sequence (chain): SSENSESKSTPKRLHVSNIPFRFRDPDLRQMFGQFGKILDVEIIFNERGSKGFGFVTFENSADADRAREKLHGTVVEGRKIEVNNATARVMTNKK
Strand	RBNS enrichment (R)
GGCGCCCGUCCAGGGACACACACAGUCUUCACUGUGCUGCAGCCAGAUGAAGUCUCUCAGAUGGGUGGGGAGGGUCAGCUCCUUCCAGCGAUCAUUUUAUUUUAUUUUAU	0.496
AGGGGACUUGUAGGAAUCUGCCUUCCAGCCCAGACCCCCAGUGUAUUUUGUCCAAGUUCACAGUAGAGUAGGGUAGAAGGAAAGCAUGUCUCUGCUUCCAUGGCUUCCUG	1.84
UAUUCUGCAAACUUGGUAGGCUGUUGGAUGUUAUAUUGCCCAUGUGCUUUACAGUGGGCAAUGUGAGAUGUCUCAGAAUGAAACGGUGCAUCUUUCAGGGCAGAAGAGCA	5.45
UAAAACCACCAGCCUGAGCUCAAGGAUGAGGCCACAGGGCUCUGGUGGACUUCAAAUCCCAGCUUUACCGUCAUCACUGUUCAGUUUUCUUCGAAGGUACGGAUGAGGAG	0.398
CUCUCUGUCUUUUUCCUUCCUGAGAAACGUCCAUCUCUCUCCCUUACUAUUCCCACUUUCAUUCAAUCAACCUGCACUUCAUAUCUAGAUUUCUAGAAAAGCUUCCUAGC	2.19
AGUGACAGUUUCUUUUGUGUUCCUAUGGAAACAUUUUAUACUGUACAUGCUAUGCUGAAGACAUUCAAAACGUGAUGUUUUGAAUGUGGAUAAAACUGUGUAAACCACAU	0.373
CCAGAGUAAACAUCAAUGCUCAGAGUUAGCAUAAUUUGGAGCUAUUCAGGAAUUGCAGAGAAAUGCAUUUUCACAGAAAUCAAGAUGUUAUUUUUGUAUACUAUAUCACU	0.334
UCACCUGAGCACAUGGUCUACUGCUUAAGGGCAUGGGGGAGGGGACCGCCCCUCUUGAGGAAGCAGAAUUAACAUCAGAAUACAAACAGCAUCAGGGCAACCCACUUCAG	2.2
AAGAGCCAGAGGAGUUUUUGCUGGGACAAAUACUGGUCCAAACAACUCAAAUACUACUUUUCAAAAGAGACCGAAGGAAGAGGAAUGGGAUCCAGAAUAUACCCCAAAGA	0.495
UUAUUUAUAUCAUGUAUCUCUAAGGACCUAAAAGCACUUUAUGUAGUUUUUAAUUAAUCUUAAGAUCUGGUUACGGUAACUAAAAAAGCCUGUCUGCCAAAUCCAGUGGA	0.29
GUGCCUCACAGGGCCCACUCCCUGCCUAUGCCUCCCUCUUGGGGGGCCGAGGAGGGCGGCUGCUCUGUCAUGAGAAUGUACGGCCCGUGGAUGAUUAACGGGCCUUUUUC	0.514
GAGCAUAGGACCUGGUCUCUGGCUCUCCUCCCCCCUGCUGUGUAAAUAGUCUCCCCAUCCCAUGAGGGGGCUUUGAUGGCCCUGGAGACCCUACAGUAAAUAAACCAGCA	0.575

Set 2 — method: protein-binding microarray; form: double-stranded DNA, one strand shown; matrix: in vitro; concentration: 0.8 µM; setting: whole 60-bp probe, no competitor; direction: higher = stronger binding; shared flanks, not repeated: … GTCTTGATTCGCTTGACGCTGCTG
Target: Centromere-binding protein 1, full length, N-terminal tag (CBF1, Saccharomyces cerevisiae, UniProt P17106, residues 1-351)
Chain of UniProt P17106 (whole entry, looked up): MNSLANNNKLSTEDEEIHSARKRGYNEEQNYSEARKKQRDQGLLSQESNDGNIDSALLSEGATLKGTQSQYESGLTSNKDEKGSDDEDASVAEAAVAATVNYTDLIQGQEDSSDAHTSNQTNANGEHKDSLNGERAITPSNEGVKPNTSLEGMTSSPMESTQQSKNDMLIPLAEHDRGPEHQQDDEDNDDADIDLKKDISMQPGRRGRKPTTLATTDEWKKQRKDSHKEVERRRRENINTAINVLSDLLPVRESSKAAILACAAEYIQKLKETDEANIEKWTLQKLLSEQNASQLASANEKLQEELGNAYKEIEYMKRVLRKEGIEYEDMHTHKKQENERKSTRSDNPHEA
Strand	fluorescence intensity [a.u.]
CTAGAAAAGCCGCCTCTGCTGATCATGAATGACTTC	531
CCTAACTACTATAATCACGCAACATAGCTTCGTACA	645
TGTACGAAGCTATAGCACACGCATATAGTAGTTAGG	534
CTATATTGTTACCACCACCTCCCCGTGATTTACTTC	2350
CTATTCACGAACGTTCACCAGACATTTGGAGGCTTC	509
CTAATGAATGAGAACCTCATGATTGTAAACGAGTTC	493
GAACGAATGAGGTAGCATGTGAAAACGCGGGAGTAG	602
CTAAATATGGAAAAAGTGATGACCATGATGCCTTTC	545
GAACTCTTGTCCCATGTCAGGTGTAAAACTGACTAG	1090
GAAAACAACTTTTATCATCAGATTGTGATACGATAG	529
GAAAAAAATGAAGGTGACGCAAAAAAGGAATTGTAG	570
GAATGGAAACTCCGACGCGTGAGGCCTCGCGTCTAG	522
CTAGGTGCGGCGGGTCACCTGCCAGCTTGCCTGTTC	2020
CTAGCAAGAATTACTCGTGAGTAAGGAAAGAGTTTC	565
CTAAATAATCTAAGACACGTTGCATTATACATGTTC	588
CTAATTGAAAACAGTCATCTGATTTAATGGAAGTTC	1140
CCTAACTACTATATCCACATGCTATAGCTTCGTACA	568
GAAGTTTTGACTTGAAACGTGCAATATCCAAAATAG	604
GAAGTATGCCAAGGCCTCGTGCATGTAGTGCGATAG	550
CTATTTTCACGTGCTGCGCTGATGTAAGCAGCATTC	6960
GAAATTAATTATAATCACGTTGTTCCTTCCCAATAG	2300
GAATTAGATTACGTGCAGGTGAGGTTATACAGATAG	607
CTATTTTCTTTTCACCTGCTCTGGCTATAATTATTC	697

Set 3 — method: EMSA with sequencing; form: double-stranded DNA, one strand shown; matrix: in vitro; concentration: 10 and 20 nM; relative to: negative control set to 0; direction: higher = stronger binding
Target: Hepatocyte nuclear factor 3-alpha (Foxa1, Mus musculus, UniProt P35582, residues 1-468, full length assumed)
Setting: whole designed probe, mean of two concentrations, ends assumed
Shared flanks, not repeated: GTGAGCGGTGCCCATTGATGGGGAAC … TTTCACTGGGATCGTGGGGAC
Residues (chain): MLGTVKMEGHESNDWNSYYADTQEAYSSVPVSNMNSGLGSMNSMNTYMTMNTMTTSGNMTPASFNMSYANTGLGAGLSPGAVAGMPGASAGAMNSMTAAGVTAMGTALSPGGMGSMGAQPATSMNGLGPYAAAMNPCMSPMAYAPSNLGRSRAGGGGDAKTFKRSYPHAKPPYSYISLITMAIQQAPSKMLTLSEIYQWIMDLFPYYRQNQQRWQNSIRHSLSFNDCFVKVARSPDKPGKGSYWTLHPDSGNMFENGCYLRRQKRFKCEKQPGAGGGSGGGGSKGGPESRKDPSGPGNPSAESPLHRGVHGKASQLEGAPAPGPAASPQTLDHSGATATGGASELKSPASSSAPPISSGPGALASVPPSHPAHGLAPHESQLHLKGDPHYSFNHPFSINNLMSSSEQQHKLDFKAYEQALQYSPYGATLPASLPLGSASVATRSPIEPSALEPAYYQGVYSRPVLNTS
Strand	normalised bound fraction
ATCTTCCCCCTCTTCCTTGCCCCACCAGCTCACCTACGGGGGTTATTTGCAGATAGGAAAATAAATAAAGCCGGCATTCGTTAACGCAGTTCTGGCGCAAACTGCTGTTTGCTCTGCATCTAACATGGTCCTTACGCGAGGCGTGGCTCCGGGAGAGCAAAGCACCGTGTCAGGCGCATGATCCGGGCTCGCC	0.358 ratio
TAGTTCTTTCTTTTGTTTCCACCTTCTTGGATTCATCAAGTATTTTTTAGTATTCCATTTTATCTCATCTGTTATCTTTTGCTGTATTATTTGTATTTACTTTTGGGATTACAATATGCATCCTTAATTTAGCATGGTCTACTTGAAATTAATAACATACTACTTTGTTGTATAATGTAAGAATTTTACTAAT	0.372 ratio
CTAGCTCCAGTCTTAGCATGGCAATTTCTTCCCGCAACGTACTATTTTCATGCAAGACGTCTTTTTCTTTCTTACAACTAAGAGAAAGCTAAGTAAACAAAGAGAACTTTTAGTTAGCACTCAATAGATTGACATATCATGATTTCTTCTGAAATTCAAAAATAACATGTATTTGTATAATGAAAGAATCCCC	0.504 ratio
TGCCACGGACGTGCAGCCGTTAAAATATTAATGTCTGGCATGTGGCAAACATTTAAAATATGCTGAGACTTGGGAGCTGTTGAGCTGGGCCTAGATGACACACCGCCTCACCTGGGTGTAGATTGCTATGTAAATGCCAAGGATTCCTCCCTGAAGCTGGAACCTGCACTCCTCTTCTCACCCCTCATTTCCT	-0.0256 ratio
TCGGCCAGCCTGGCTTCTGCGCCCCGCCAGGAGGTCGCGGAGCGGAGCGCGGCCAGGAAGTGAGCTGAGAGTGACAGCTCCCCCCACGCGAGAATAAACAAACATCCACACACTGGCTCTATGACTCATTCTCTTTCTTTCGGGAGGAGGGGAGAAAGGAGCGGGAGGGCGGGCGGGCAGGGGAGAGGCAGGC	0.383 ratio
CTCCTACTGATTGCCATATTTCTTTCACAGGATAACATAAGATTGGGTCAGCAGAATGGTGTTAACAAGATTATTTTGAGTGACTCACTCACAGCAATCTATGGTTGAGTTCAGGACTCTGGGCTGCCCAATGGTCCACTGCCAACTCTTAGGTTTAGACTTGGTGTGCAAGCCTGGTGTGCACTGGCTTTCC	-0.0681 ratio
AGGTGAATTGGCTGCTTCCATCCTGGCTTGGAACTTCAGACATAGAAGCCTTGGGACTTTCTCTGACTCATGCCAGGACTTTCTCCAGATGCTTGTTTGCTGAATCTCTGTGGATCACGTGACCTTAGCCAGGGATGTTGGTGAAACTGTGTGTTGGTCTAGGTACCTAGCCCATGCTAGGTGCTCATCGAAT	0.0607 ratio
ATCTTCCCCCTCTTCCTTCACTCCCTCCCTAACCCCGGCGGGTTATTTGCAGATAGGAAAATAAATAAAGCCGGCATTCGTTAACCCTCTTCTGGCGCAAACTGCTGTTTGCTCTGGATGAATCATGGTCCTTTGGCGACGCCAGGCTCCGGGAGAGCAAAGCACCGTGTCAGGGCCATGATCCGGGGTGGCC	0.312 ratio

Set 4 — target: CCND1, cyclin fold, Cln2 fusion (human); method: yeast growth competition, sequencing; matrix: yeast; setting: strong parent motif; relative to: not given; direction: higher = stronger binding
Parent: RBL2 docking peptide (human); STTRRRLFVENDS; partner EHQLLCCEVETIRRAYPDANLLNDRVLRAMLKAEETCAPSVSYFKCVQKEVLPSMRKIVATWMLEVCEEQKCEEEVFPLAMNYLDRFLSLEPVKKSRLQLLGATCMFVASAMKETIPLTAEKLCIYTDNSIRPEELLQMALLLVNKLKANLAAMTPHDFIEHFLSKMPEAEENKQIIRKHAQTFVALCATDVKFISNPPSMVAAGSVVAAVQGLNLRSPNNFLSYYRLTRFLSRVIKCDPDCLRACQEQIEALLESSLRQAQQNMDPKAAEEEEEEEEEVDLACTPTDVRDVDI
Change	normalised enrichment score
STTRRWLFVENDS [R6W]	-0.113
STTRRFLFVENDS [R6F]	0.628
STTRRRMFVENDS [L7M]	-0.108
STTRRRLFVENDI [S13I]	1.61
STTRRRLFVENDY [S13Y]	0.882
STTRRRLFHENDS [V9H]	1.55
STTRRRLFVYNDS [E10Y]	-0.439
SYTRRRLFVENDS [T2Y]	0.823
STTRRRLFVENDV [S13V]	0.919
STTRRRLFVKNDS [E10K]	-0.372
STTWRRLFVENDS [R4W]	-0.145
SQTRRRLFVENDS [T2Q]	1.81
STTRRRLFVENWS [D12W]	0.283
STTRARLFVENDS [R5A]	-0.213
STTRRELFVENDS [R6E]	1.04
STTRRRLFVENHS [D12H]	1.11
STKRRRLFVENDS [T3K]	-0.28
STYRRRLFVENDS [T3Y]	0.602
STTRRRLLVENDS [F8L]	-0.0116
STTRRRLFVENRS [D12R]	0.389
STTRRRIFVENDS [L7I]	0.391
STTRRREFVENDS [L7E]	0.624
GTTRRRLFVENDS [S1G]	0.531

For quick reference, copied from above (set 2):
Strand	fluorescence intensity [a.u.]
CTAATGAATGAGAACCTCATGATTGTAAACGAGTTC	493
GAACTCTTGTCCCATGTCAGGTGTAAAACTGACTAG	1090
CTATTCACGAACGTTCACCAGACATTTGGAGGCTTC	509
GAACGAATGAGGTAGCATGTGAAAACGCGGGAGTAG	602
GAAGTTTTGACTTGAAACGTGCAATATCCAAAATAG	604
GAAAACAACTTTTATCATCAGATTGTGATACGATAG	529
GAAAAAAATGAAGGTGACGCAAAAAAGGAATTGTAG	570
GAAATTAATTATAATCACGTTGTTCCTTCCCAATAG	2300
CTAGCAAGAATTACTCGTGAGTAAGGAAAGAGTTTC	565
